Published values from different studies.
Numbered parts are unrelated; each lists some results of a single study. Changes are numbered by the printed parent chain.

Set 1 — technique: RNA Bind-n-Seq; form: RNA; sample: in vitro; concentration: 1 µM; setting: whole 134-nt RNA, ends assumed; added: 150 mM KCl; baseline: input library; reading: higher = stronger binding
Target: Ras GTPase-activating protein-binding protein 1, C-terminal RGG region (G3BP1, Homo sapiens, UniProt Q13283)
Chain of UniProt Q13283 (whole entry, looked up): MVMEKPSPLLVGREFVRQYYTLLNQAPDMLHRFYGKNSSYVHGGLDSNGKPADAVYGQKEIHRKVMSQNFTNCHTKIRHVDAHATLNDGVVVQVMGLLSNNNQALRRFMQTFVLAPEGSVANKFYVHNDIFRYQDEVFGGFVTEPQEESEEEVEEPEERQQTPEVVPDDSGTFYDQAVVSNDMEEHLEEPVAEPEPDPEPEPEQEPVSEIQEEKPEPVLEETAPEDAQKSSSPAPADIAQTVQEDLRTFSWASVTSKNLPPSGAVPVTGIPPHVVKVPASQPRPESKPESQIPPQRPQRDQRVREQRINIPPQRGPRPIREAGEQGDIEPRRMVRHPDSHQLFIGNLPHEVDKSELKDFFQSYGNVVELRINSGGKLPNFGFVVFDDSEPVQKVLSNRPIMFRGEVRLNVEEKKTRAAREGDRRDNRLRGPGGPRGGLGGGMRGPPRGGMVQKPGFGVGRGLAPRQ
For `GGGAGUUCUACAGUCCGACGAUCUCAUGGCUAUCAUUAGCCACAGGUACUGCUGAUUAUAAGGCCAGUAAAAUUUUAGUACCUGGAGGUUUGACUCUAAUUUUUGCACUGAUGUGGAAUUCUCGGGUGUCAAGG`, the log2 enrichment was -1.89.
With `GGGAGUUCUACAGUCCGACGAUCCCUCAAGUCCUGUGCUACACAUCGUAUGUACCGAAUCGGGAGGAGGGGAGGGAAAGUAUUAUGUUACGCCGUUCGGAUCUGCACUUCCAGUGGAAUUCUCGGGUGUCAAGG` the log2 enrichment was 0.9.
The log2 enrichment of `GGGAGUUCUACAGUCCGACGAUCCAAGUCCUGUGCUACACAUCGUAUGUACCGAAUCGGGAAAGGAAAGGGGAAAGGGAAAGUAUUAUGUUACGCCGUUCGGAUCUGCACUUCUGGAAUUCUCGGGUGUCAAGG` is reported as -0.239.
The log2 enrichment of `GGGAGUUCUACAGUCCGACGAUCGUCCUGUGCUACACAUCGUAUGUACCGAAUCGGGGUUUUUGGGUUUUUGGGUUUUUGGAAAGUAUUAUGUUACGCCGUUCGGAUCUGCACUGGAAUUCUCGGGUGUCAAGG` is reported as -0.802.
`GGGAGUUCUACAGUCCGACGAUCCCUCAAGUCCUGUGCUACACAUCGUAUGUACCGAAUCGGGGUGGUGGGGUGGGAAAGUAUUAUGUUACGCCGUUCGGAUCUGCACUUCCAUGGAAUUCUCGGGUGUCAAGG` gave a log2 enrichment of 0.296.

Set 2 — technique: universal PBM; form: double-stranded DNA, one strand shown; sample: in vitro; concentration: 600 nM; reading: higher = stronger binding
Target: Sal-like protein 4, full length isoform A (SALL4, Homo sapiens, UniProt Q9UJQ4, residues 1-1053)
Chain of UniProt Q9UJQ4 (whole entry, looked up): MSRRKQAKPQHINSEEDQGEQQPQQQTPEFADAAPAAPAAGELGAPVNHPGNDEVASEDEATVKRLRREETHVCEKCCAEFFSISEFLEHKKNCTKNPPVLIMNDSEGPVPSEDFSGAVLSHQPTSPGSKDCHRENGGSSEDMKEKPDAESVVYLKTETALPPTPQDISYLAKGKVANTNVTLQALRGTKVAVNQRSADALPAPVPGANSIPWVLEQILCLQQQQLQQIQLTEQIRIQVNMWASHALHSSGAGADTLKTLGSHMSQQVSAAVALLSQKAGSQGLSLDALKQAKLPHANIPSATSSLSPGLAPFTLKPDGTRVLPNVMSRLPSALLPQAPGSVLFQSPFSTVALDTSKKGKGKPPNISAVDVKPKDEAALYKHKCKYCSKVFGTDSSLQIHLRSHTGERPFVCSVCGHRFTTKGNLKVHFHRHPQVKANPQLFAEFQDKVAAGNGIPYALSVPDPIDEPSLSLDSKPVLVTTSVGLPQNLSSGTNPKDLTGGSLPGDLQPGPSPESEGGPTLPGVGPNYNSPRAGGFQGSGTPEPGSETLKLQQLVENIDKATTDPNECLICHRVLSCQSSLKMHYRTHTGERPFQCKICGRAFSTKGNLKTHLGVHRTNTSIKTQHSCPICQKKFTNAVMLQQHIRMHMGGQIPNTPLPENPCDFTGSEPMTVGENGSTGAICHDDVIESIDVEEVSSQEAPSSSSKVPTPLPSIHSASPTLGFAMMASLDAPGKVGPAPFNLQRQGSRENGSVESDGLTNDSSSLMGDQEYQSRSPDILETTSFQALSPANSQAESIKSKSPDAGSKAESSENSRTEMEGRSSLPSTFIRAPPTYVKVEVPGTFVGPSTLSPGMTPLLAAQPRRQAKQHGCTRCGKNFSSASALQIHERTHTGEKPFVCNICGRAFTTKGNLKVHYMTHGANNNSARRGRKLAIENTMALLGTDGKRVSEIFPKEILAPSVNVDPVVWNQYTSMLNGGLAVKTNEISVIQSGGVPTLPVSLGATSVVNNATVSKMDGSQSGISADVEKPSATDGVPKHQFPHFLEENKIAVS
Setting: 8-mer, flanks averaged, mean of replicates
`AATCTAGT` gave an E-score of 0.136.
`CCCCTGGC` gave an E-score of -0.269.
`CCCAGTGA` gave an E-score of -0.295.
`AGGAAATG` has an E-score of 0.161.
The E-score of `CACGGACA` is reported as -0.188.
With `GTTTTTAA` the E-score was 0.237.
With `CTAGACAA` the E-score was 0.0439.
For `CTGCCCAA`, the E-score was -0.225.
`CAAGTGCC` gave an E-score of -0.205.
`GCACCTTA` has an E-score of 0.022.
The E-score of `AAATCATA` is reported as 0.38.
For `AACGTGAA`, the E-score was 0.0565.
With `AGATTGCA` the E-score was 0.145.
For `ACACATCG`, the E-score was 0.068.
With `ACTCGCAA` the E-score was 0.139.
With `ACTGAGGG` the E-score was -0.195.
With `CCCGACTA` the E-score was -0.253.
For `GCGCCGGA`, the E-score was -0.374.
With `TATGGGAA` the E-score was 0.15.
`GGAACGCA` gave an E-score of -0.289.
For `AGATCTAG`, the E-score was -0.0101.
`ACGGTCAT` gave an E-score of -0.0056.
The E-score of `CTATACAA` is reported as 0.24.
For `AGATGAGC`, the E-score was 0.064.
`CTGCCTCA` gave an E-score of -0.128.

Set 3 — target: CCNB3, cyclin fold, Cln2 fusion (human); technique: yeast growth competition, sequencing; sample: yeast; setting: weak parent motif; baseline: not given; reading: higher = stronger binding
Starting sequence: CDKN1A docking peptide (human); SKACRRLFGPVDS; partner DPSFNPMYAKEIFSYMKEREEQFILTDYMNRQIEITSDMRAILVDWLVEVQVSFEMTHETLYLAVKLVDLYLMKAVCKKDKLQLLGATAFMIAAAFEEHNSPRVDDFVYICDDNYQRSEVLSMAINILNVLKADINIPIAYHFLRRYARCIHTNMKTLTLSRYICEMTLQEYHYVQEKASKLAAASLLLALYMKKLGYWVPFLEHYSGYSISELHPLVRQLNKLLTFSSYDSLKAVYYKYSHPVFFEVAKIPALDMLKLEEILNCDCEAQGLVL
`R6D` — result for “normalised enrichment score”: 0.0235.
`R5L` — result for “normalised enrichment score”: 0.365.
Under “normalised enrichment score”, `R5K` is recorded as 0.433.
`G9F` — result for “normalised enrichment score”: 0.612.
`V11G` — result for “normalised enrichment score”: 0.513.
For `R5E`, “normalised enrichment score” read -0.209.
For `R6V`, “normalised enrichment score” read 0.818.
`A3I` — result for “normalised enrichment score”: 0.639.
`F8M`: “normalised enrichment score” 0.0856.
Under “normalised enrichment score”, `A3R` is recorded as 0.063.
For `G9K`, “normalised enrichment score” read 0.42.
Under “normalised enrichment score”, `R6Y` is recorded as 0.412.
Under “normalised enrichment score”, `K2W` is recorded as 0.408.
Under “normalised enrichment score”, `P10W` is recorded as 0.315.
`V11N` — result for “normalised enrichment score”: 0.633.
For `G9E`, “normalised enrichment score” read 0.351.

Set 4 — technique: protein binding microarray; form: double-stranded DNA, one strand shown; sample: in vitro; concentration: not given; baseline: not given; reading: higher = stronger binding
Target: Histone acetyltransferase KAT6A, winged helix 2, GST fusion (KAT6A, Homo sapiens, UniProt Q92794, residues 85-181)
Setting: 8-mer, flanks averaged, mean of 2 arrays, mostly near background
Construct (chain): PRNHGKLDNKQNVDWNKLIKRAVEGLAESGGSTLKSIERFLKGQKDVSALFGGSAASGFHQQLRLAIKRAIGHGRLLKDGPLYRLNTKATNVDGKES
The E-score of `CCAGCTCC` is reported as -0.0391.
The E-score of `CAACACGG` is reported as 0.0625.
The E-score of `GGCCTTTA` is reported as -0.0815.
`CAGGACAC` has an E-score of 0.0541.
With `ACGATGCA` the E-score was 0.0614.
For `AAGCCAAC`, the E-score was 0.0264.
For `AACCATCA`, the E-score was -0.0855.
`ATGTCGGG` gave an E-score of 0.0281.
With `ACGATGAA` the E-score was -0.0924.
`CCACTCTC` gave an E-score of -0.0392.
The E-score of `AAGACGTA` is reported as -0.0858.
For `CGTAGAGC`, the E-score was -0.069.
With `ATGTCAGA` the E-score was -0.132.
With `CACCTTAG` the E-score was -0.0307.
The E-score of `TCGAAGCA` is reported as 0.0138.
`ACTCGGCC` gave an E-score of 0.092.
The E-score of `AAATCACT` is reported as 0.115.
The E-score of `TAATCGGA` is reported as 0.0426.
`GAGGCCAA` has an E-score of 0.0144.

Set 5 — technique: RNA Bind-n-Seq; form: RNA; sample: in vitro; concentration: not given; baseline: input RNA pool; reading: higher = stronger binding
Target: RING finger protein unkempt homolog, zinc fingers 1-6, GST-SBP tag (UNK, Homo sapiens, UniProt Q9C0B0, residues 30-357)
Setting: RNA with constant flanks, human and mouse sites, ends assumed
Residues (chain): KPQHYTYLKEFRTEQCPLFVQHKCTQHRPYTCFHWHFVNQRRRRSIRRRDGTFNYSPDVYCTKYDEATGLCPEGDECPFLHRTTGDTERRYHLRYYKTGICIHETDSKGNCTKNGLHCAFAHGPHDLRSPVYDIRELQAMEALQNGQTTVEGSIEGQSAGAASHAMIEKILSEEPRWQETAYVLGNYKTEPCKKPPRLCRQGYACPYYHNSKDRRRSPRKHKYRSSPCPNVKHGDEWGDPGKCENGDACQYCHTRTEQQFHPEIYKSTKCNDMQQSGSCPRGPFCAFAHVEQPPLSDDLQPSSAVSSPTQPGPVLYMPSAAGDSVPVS
The bound/input enrichment of `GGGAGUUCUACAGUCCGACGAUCAAACCCCAGGCUGUUUCUUCAUUAAACUCUAGUCAUUCCAGGUCUCAUGGGAAUGAUCACCAUAGCAAGGAACAUCAACGCUCCAAAUCACCUCGGGACCCUGAUGCAAACUGGGAUUCUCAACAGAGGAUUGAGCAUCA` is reported as 0.245 ratio.
`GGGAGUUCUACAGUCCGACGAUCGGUCUAAUAUAAAUGGGCCUGGGACACCCAGGCCACUUAAUCGACCAAAGGUUUCUUUGUCAGCCCCCAUGACAACAAAUGGGUUGCCUGAGAGCACAGACAGCAAAGAGGCAAAUUUGCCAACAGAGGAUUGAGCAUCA` gave a bound/input enrichment of 0.144 ratio.
`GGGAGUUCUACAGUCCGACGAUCGAAAAUCAAGCAGCCGAAGAUGAACUAAGAAAAGAGAUAAGUAAAACGAUGUUUGCAGAAAUGGAAAUCAUUGGUCAGUUUAACCUGGGAUUUAUAAUAACCAAACUGAAUGAGGAUAUCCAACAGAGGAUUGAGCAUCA` gave a bound/input enrichment of 0.344 ratio.
`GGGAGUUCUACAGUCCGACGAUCUUGGACAGCGCCCCACAACAAAGAAUUAUCCUGCCCGAAAUGGUAGUCGUGCCAAGGCUGAGUAACCUUGUGUUAAAAGUAACCUGUGGCAGACUAGGUUUCCAGAAUUUCCUGGUUCUGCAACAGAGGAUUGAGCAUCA` has a bound/input enrichment of 0.115 ratio.
The bound/input enrichment of `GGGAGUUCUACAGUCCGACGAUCGACAGCUUGCUCAGUAACUUGGGGUGCCAGUCUGCCUCUCAUGUAGGGCCCUUCAUCGAUAGCUACCGCUGCUUCCAACCAAAGCAGGAGGGGGCCUUCACCUGCUGGUCAGCAGUCACUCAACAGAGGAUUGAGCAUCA` is reported as 0.0696 ratio.
For `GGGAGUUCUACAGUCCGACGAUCGCUGGCCAAGAGGAGCUUCUCCAGUCAGAGACCCGUGGUUGACAGACAGAGCCGAAAGCUGGAGCCGGGAGGGUUUGGGGAGAAGCCCGUUAGGCCAGGUGGUGGUGACACCUCCCCUCGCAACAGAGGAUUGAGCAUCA`, the bound/input enrichment was 0.106 ratio.
For `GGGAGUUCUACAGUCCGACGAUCAAUUUAAUGCUGUAGAGGGUGACUUGCCAUCGUGAGAGAUUGGUACAUGAUGUGUAAAUUCAGUUCAGCAUAUGUUUCUUCAUUAUGAAACCACUAGCAAUCCCAGCUAACCAUGGAGUUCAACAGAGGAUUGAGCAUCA`, the bound/input enrichment was 0.243 ratio.
`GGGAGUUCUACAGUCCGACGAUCUAUUCAUGCAGGGGCUGCCCCACGAGCUCAGGCAAGGCCCCCGUGGGCUUUGCGUAGUUCUAGUUCUUCAAUUUGGUUACUGCGCGAGUGUGUCCUGGAAGGAAUUUGUAUGGGAUUGUGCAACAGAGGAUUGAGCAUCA` has a bound/input enrichment of 0.299 ratio.

Some of these lines once more (set 4):
The E-score of `AAGACGTA` is reported as -0.0858.
For `CGTAGAGC`, the E-score was -0.069.
With `ATGTCAGA` the E-score was -0.132.
With `CACCTTAG` the E-score was -0.0307.
